Published values collected from several papers.
“And” joins repeats or separate records; there may be more than shown. ± gives the spread as reported. Values after ≈ are worked out from the molar mass of the structure shown. Where no end group is shown, it is not given here.

| Substance | organism | test | system | conditions | how to read | endpoint | result |
| --- | --- | --- | --- | --- | --- | --- | --- |
| CC1(C)CC[C@]2(C(=O)O)CC[C@]3(C)C(=CC[C@@H]4[C@@]5(C)CC[C@H](O)[C@@](C)(CO)[C@@H]5CC[C@]43C)[C@@H]2C1 | Leishmania mexicana | cell proliferation | axenic amastigotes | 50 µM | – | inhibition | < 80% |
| TDVDHVALRF-NH2 (C-amide) | Drosophila melanogaster | heart rate | adult heart | 40 nL injected, 1 µM, 10 min | relative to: DMS | inhibition | 46% |
| Cc1cc(C(C#N)c2ccc(Cl)cc2)c(Cl)cc1NC(=O)c1cc(I)cc(I)c1O (stereo not shown) | Haemonchus contortus | – | multidrug-resistant | oral, 10 mg/kg, day 6 post-treatment, together with: moxidectin 0.2 mg/kg | – | faecal egg count reduction | 85% |
| TDVDHAFLRF-NH2 (C-amide) | Drosophila melanogaster | gut contraction | adult gut | 1 µM, within 10 min | relative to: DMS effect | inhibition | 100% |
| CTCATACTGA | Salmonella enterica Typhimurium | RNA-seq, item: acpP mRNA | peptide, SL1344 | 5 µM, 15 min | relative to: untreated | log2 fold change | -2.1 |
| CC[C@H]1OC(=O)[C@H](C)[C@@H](O[C@H]2C[C@@](C)(OC)[C@@H](O)[C@H](C)O2)[C@H](C)[C@@H](O[C@@H]2O[C@H](C)C[C@H](N(C)C)[C@H]2O)[C@](C)(O)C[C@@H](C)CN(C)[C@H](C)[C@@H](O)[C@]1(C)O | Moraxella | – | community-acquired pneumonia patients | Fine score 70 or more | – | sensitive strains | 100% |
| TDVDAVFLRF-NH2 (C-amide) | Drosophila melanogaster | heart rate | wandering third instar larval heart | 40 nL injected, 1 µM, 10 min | relative to: DMS | inhibition | 45% |
| Cc1c(C(=O)Nc2ccc3c(c2)B(O)OC3)nnn1-c1ccccn1 | Leishmania major | – | MHOM/SA/85/JISH118, BALB/c mouse | topical, 50 µL saturated solution twice daily, 10 days, propylene glycol-ethanol 1:1 vehicle | relative to: vehicle | lesion size reduction | 71.4% and 91.3% |
| CC1(C)SC2C(NC(=O)C(NC(=O)C3=C(O)C(Cc4ccc(F)cc4)NC3=O)c3ccccc3)C(=O)N2C1C(=O)O (stereo not shown) | Escherichia coli | broth microdilution | BW25113, Mueller-Hinton broth | together with: 2,2'-bipyridyl 30 µg/mL | – | MIC | 12.5 µg/mL (≈ 21.5 µM) |
| COc1cccc(/C=C/c2nc3ccc(N4CCCCC4)cc3c(=O)n2-c2cccc(C(C)(C)C)c2)n1 | Zika virus | viral replication, inhibitor | Vero | 10 µM | – | inhibition | ≥ 99.9% |
| CCN(CC)CCOc1ccc2c(=O)c3ccc(Cl)cc3[nH]c2c1 | Plasmodium berghei | – | male C57BL/6 albino mouse | oral, liver stage, luciferase sporozoites | – | fully protective curative dose | 160 mg/kg |
| CCOC(=O)c1ccc(OCCC2CCN(c3ccc(C)nn3)CC2)cc1 | Enterovirus D68 | virus yield reduction | RD, US/KY/14-18953 | 72 h | – | EC90 | 106 ± 12 µM |
| CS(=O)(=O)c1ccc(-c2cnc(N)c(-c3ccc(C(F)(F)F)nc3)c2)cc1 | Plasmodium cynomolgi | schizont (large EEF) growth | primary rhesus hepatocytes | day 3, compound added at 72 h | – | IC50 | 0.31 µM |
| COC(=O)[C@@H]1Cc2c([nH]c3ccccc23)[C@@H](c2ccc3c(c2)OCO3)N1 | Plasmodium berghei | parasitaemia suppression, Peters suppressive test | NK-65, mice | oral | – | ED50 | 27.7 mg/kg |
| O=c1c(O)c(-c2cc(O)c(O)c(O)c2)oc2cc(O)cc(O)c12 | Human immunodeficiency virus 1 | viral replication, inhibitor | TZM-bl, NL43 | 11.1 µM | – | inhibition | > 50% |
| O=c1c(O)c(-c2ccc(O)c(O)c2)oc2cc(O)cc(O)c12 | Trypanosoma brucei | parasite growth, resazurin | – | trypomastigote | – | IC90 | 9.76 µg/mL (≈ 32.3 µM) |

| Substance | organism | test | system | conditions | how to read | endpoint | result |
| --- | --- | --- | --- | --- | --- | --- | --- |
| C[C@H](NC(=O)C(=O)Nc1ccccc1C(C)(C)C)C(=O)N[C@@H](CC(=O)O)C(=O)COc1c(F)c(F)cc(F)c1F | Zika virus | cell proliferation | human neural progenitor cells, brain organoid | concentration not given | relative to: mock | PH3-positive hNPC | 106 ± 10% |
| TDVAHVFLRF-NH2 (C-amide) | Drosophila melanogaster | gut contraction | wandering third instar larval gut | injection, 1 µM, within 10 min | relative to: DMS effect | inhibition | 10% |
| CCOC(=O)N1CCN(Cn2nc(C34CC5CC(CC(C5)C3)C4)n(-c3ccccc3)c2=S)CC1 | Micrococcus luteus | microbial growth, disc diffusion | IFO3232 | 200 µg/disc, 24 h | – | inhibition zone | 14 mm |
| CO/N=C1\C[C@]2(C[C@@H]3C[C@@H](C/C=C(\C)C[C@@H](C)/C=C/C=C4\CO[C@@H]5[C@H](O)C(C)=C[C@@H](C(=O)O3)[C@]45O)O2)O[C@H](/C(C)=C/C(C)C)[C@H]1C | Haemonchus contortus | – | multidrug resistant, sheep | oral, 0.2 mg/kg, day 6 post-treatment, together with: closantel 10 mg/kg | – | faecal egg count reduction | 91% |
| GKVKVGVNGFGRIGRLVTRAAFNSGKVDIVA | Candida albicans SC5314 | epithelial damage | peptide, TR146 | 5 µg/mL, 12 h | relative to: untreated infected | LDH release | decreased |
| CCCN(CCC)CCOc1ccc2c(=O)c3c(Cl)c(Cl)ccc3[nH]c2c1 | Plasmodium berghei | – | male C57BL/6 albino mouse | oral, liver stage, luciferase sporozoites | – | fully protective curative dose | 10 mg/kg |
| TDADHVFLRF-NH2 (C-amide) | Drosophila melanogaster | heart rate | wandering third instar larval heart | 40 nL injected, 1 µM, 10 min | relative to: DMS | inhibition | 73% |
| CC[C@H]1OC(=O)[C@H](C)[C@@H](O[C@H]2C[C@@](C)(OC)[C@@H](O)[C@H](C)O2)[C@H](C)[C@@H](O[C@@H]2O[C@H](C)C[C@H](N(C)C)[C@H]2O)[C@](C)(O)C[C@@H](C)C(=O)[C@H](C)[C@@H](O)[C@]1(C)O | Moraxella | – | community-acquired pneumonia patients | Fine score 70 or more | – | sensitive strains | 100% |
| CC1(C)S[C@@H]2[C@H](NC(=O)[C@H](N)c3ccccc3)C(=O)N2[C@H]1C(=O)O | Micrococcus luteus | microbial growth, disc diffusion | IFO3232 | 100 µg/disc, 24 h | – | inhibition zone | 19 mm |
| N=C(N)N | Enterovirus D68 | virus yield reduction | RD cells, US/KY/14-18953 | 3 d | – | EC90 | 60 ± 1.3 µM |
| TDVDHVFLAF-NH2 (C-amide) | Drosophila melanogaster | gut contraction | wandering third instar larval gut | injection, 1 µM, within 10 min | relative to: DMS effect | inhibition | 74% |
| O=S(=O)(c1ccc(-c2ccc3nccc(Nc4ccc(OCc5ccccc5)c(Cl)c4)c3c2)cc1)N1CCOCC1 | Leishmania major | – | promastigotes | – | relative to: matched quinazoline | potency increase | 2.5 fold |
| C/C=C1\NC(=O)[C@H]2CSSCC/C=C/[C@H](CC(=O)N[C@H](C(C)C)C(=O)N2)OC(=O)[C@H](C(C)C)NC1=O | Lucilia cuprina | larval growth | larvae | – | relative to: diflubenzuron IC50 over cpd IC50 | potency ratio | 2 fold |
| TDVDHVFARF-NH2 (C-amide) | Drosophila melanogaster | heart rate | adult heart | 40 nL injected, 1 µM, 10 min | relative to: DMS | inhibition | 86% |
| COCCSc1nnc(C23CC4CC(CC(C4)C2)C3)n1-c1ccccc1 | Micrococcus luteus | – | IFO 3232 | 200 µg/disc, 24 h, 37 °C | – | inhibition zone diameter | < 10 mm |
